Assay results pooled from the literature.
Each line is one published result; not all experiments were run side by side. Numbers after ± are the reported error.
Target: NAD-dependent protein deacetylase sirtuin-2 (SIRT2, Homo sapiens, UniProt Q8IXJ6)
Sequence (Q8IXJ6 1-389, as in one of the studies): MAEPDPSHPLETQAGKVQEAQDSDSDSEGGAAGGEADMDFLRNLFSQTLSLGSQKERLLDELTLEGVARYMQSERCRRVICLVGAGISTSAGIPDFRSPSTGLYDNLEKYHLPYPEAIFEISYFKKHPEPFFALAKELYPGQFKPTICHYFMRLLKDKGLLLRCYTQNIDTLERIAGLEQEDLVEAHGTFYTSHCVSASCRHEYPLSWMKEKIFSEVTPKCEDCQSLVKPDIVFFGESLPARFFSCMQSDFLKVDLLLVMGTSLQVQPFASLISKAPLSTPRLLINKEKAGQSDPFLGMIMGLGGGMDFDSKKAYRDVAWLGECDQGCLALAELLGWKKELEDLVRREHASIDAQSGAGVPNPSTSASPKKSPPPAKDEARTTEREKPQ

Structure (SMILES)	observed	mode	technique	IC50
Cc1cc(C)nc(SC(C)C(=O)Nc2ncc(Cc3cccc4ccccc34)s2)n1 (centres unmarked)	enzyme activity	inhibitor	fluorescence	260 nM
CC[C@H](C)[C@H](NC(=O)[C@@H](NC(=O)[C@H](CCCCNC(C)=S)NC(=O)[C@H](CC(=O)O)NC(=O)[C@H](CO)NC(=O)[C@@H]1CCCN1C(=O)[C@@H](N)CCSC)[C@@H](C)O)C(=O)NCC(=O)NCC(=O)O	enzyme activity	inhibitor	HPLC	~11000 nM
CCCCCCCCCCCCCC(=S)NCCCC[C@H](NC(=O)[C@@H]1CCCN1C(=O)[C@@H](N)CC(C)C)C(=O)N[C@@H](CCCCN)C(=O)N[C@H](C(=O)O)[C@@H](C)O				2600 nM
Cc1cc(C)nc(SCC(=O)Nc2ncc(Cc3cccc(OCc4cn(CCOCCOCCCCCCCl)nn4)c3)s2)n1	enzyme activity	inhibitor	fluorescence	740 nM
CCCCCCCCCCCCCC(=S)NCCCC[C@H](NC(=O)[C@H](CCCNC(=N)N)NC(=O)[C@H](C)N)C(=O)N[C@@H](CO)C(=O)N[C@H](C(=O)O)[C@@H](C)O				2600 nM
Cc1cc(C)nc(SCC(=O)Nc2ncc(Cc3cccc(OCc4cn(Cc5ccc(C#N)cc5)nn4)c3)s2)n1	enzyme activity	inhibitor	fluorescence	150 nM
CC(=S)NCCCC[C@H](NC(=O)[C@H](CCCNC(=N)N)NC(=O)[C@H](C)NC(=O)[C@@H](NC(=O)[C@H](CCC(N)=O)NC(=O)[C@@H](N)CCCCN)[C@@H](C)O)C(=O)N[C@@H](CO)C(=O)N[C@H](C(=O)NCC(=O)NCC(=O)N[C@@H](CCCCN)C(=O)N[C@@H](C)C(=O)O)[C@@H](C)O	enzyme activity	inhibitor	HPLC	1000 to 2000 nM
CCCCCCCCCCCCCC(=S)NCCCC[C@H](NS(C)(=O)=O)C(=O)N[C@@H](C)C(=O)N[C@@H](CCCNC(=N)N)C(N)=O	enzyme activity	inhibitor		< 100 nM
O=C(NO)c1ccc(Cn2sc3ccccc3c2=O)cc1	enzyme activity	inhibitor		7300 nM
COC(=O)[C@H](C)NC(=O)[C@H](C)NC(=O)[C@H](CCCCNC(C)=S)NC(=O)c1ccc(C(=O)c2ccc(OC/C=C/Cn3cc(COCCOCCOc4cccc5c4C(=O)N(C4CCC(=O)NC4=O)C5=O)nn3)cc2)cc1 (some centres unmarked)	enzyme activity	inhibitor	HPLC	3500 nM
Cc1cc(C)nc(SCC(=O)Nc2ncc(Cc3cccc(OCc4cn(-c5ccc(Cl)cc5)nn4)c3)s2)n1		inhibitor		4200 ± 100 nM
